Measured values from different studies.
Parts stem from different laboratories: compare values within a part only. “And” joins repeats or separate records; there may be more than shown.

Study 1 — observed: thermal unfolding; technique: differential scanning fluorimetry; tested at: 5.5 µM; reading: higher = more unfolded
Compound: C[C@@H]1CN(c2ccc(-c3cc(C(=O)NCCOCCOCCOCCOCCNC(=O)Cn4cc(-c5[nH]cc(C(=O)N[C@@H](CC(N)=O)c6ccc(F)c(Cl)c6)c5-c5ccc(Cl)cc5F)cn4)ccc3F)cc2NC(=O)c2c[nH]c(=O)cc2C(F)(F)F)C[C@H](C)N1C
WDR5: WD repeat-containing protein 5 (WDR5, Homo sapiens, UniProt P61964)
DCAF1: DDB1- and CUL4-associated factor 1 (DCAF1, Homo sapiens, UniProt Q9Y4B6)
Chain of UniProt Q9Y4B6 (whole entry, looked up): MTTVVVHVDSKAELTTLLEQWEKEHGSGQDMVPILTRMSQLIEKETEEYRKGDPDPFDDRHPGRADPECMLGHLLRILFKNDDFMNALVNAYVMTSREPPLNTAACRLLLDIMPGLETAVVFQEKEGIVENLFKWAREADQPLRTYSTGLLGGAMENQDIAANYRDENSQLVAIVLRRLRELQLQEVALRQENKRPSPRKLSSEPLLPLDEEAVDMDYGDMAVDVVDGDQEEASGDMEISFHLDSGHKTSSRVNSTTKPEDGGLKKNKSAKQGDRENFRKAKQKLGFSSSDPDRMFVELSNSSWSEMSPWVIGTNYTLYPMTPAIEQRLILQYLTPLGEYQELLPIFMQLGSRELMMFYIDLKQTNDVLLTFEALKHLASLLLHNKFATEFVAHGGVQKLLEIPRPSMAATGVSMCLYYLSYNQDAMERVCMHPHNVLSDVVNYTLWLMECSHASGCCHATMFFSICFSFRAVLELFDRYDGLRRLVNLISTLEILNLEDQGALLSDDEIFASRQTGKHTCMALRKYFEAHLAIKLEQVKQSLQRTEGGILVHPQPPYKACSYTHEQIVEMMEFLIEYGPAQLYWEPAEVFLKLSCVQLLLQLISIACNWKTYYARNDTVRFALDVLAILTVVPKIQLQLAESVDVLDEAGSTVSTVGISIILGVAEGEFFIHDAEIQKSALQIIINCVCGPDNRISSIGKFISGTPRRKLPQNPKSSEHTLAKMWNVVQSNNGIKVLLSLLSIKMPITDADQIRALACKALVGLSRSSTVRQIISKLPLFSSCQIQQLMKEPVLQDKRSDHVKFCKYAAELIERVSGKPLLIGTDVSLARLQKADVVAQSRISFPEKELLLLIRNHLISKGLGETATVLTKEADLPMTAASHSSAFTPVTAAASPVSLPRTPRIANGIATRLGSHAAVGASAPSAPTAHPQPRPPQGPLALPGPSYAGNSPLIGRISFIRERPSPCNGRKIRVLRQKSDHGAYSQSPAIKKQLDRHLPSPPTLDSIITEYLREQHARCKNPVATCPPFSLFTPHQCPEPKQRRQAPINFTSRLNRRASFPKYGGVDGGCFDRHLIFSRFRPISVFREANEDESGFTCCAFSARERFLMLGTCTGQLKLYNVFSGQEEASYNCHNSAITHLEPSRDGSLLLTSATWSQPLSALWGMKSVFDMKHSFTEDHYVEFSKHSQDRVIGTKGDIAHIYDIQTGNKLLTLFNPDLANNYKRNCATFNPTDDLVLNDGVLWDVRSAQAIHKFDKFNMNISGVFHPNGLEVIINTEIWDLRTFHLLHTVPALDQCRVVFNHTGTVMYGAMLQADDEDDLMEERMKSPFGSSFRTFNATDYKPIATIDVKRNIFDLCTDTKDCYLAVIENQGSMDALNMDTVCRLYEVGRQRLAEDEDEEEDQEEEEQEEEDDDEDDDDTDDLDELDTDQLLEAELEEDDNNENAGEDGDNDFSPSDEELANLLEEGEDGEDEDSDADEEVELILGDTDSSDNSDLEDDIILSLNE
target | temperature | SYPRO Orange fluorescence
WDR5 | 55.41 °C | 13300 a.u.
WDR5 | 33.2 °C | 14300 a.u.
WDR5 | 60.21 °C | 10300 a.u.
DCAF1 | 46.6 °C | 13000 a.u.
WDR5 | 28.4 °C | 14900 a.u.
WDR5 | 48 °C | 14400 a.u.
DCAF1 | 73.01 °C | 51400 a.u.
WDR5 | 70.81 °C | 7150 a.u.
DCAF1 | 52.2 °C | 15900 a.u.
DCAF1 | 80.41 °C | 43900 a.u.
DCAF1 | 78.21 °C | 45700 a.u.

Study 2 — cell line: MDA-MB-231; observed: cell viability; technique: CellCounting-Lite; tested at: 222.2 nM; temperature: 37 °C; reading: higher = more viable cells
SMILES | luminescence signal
Cn1cc(-n2cnc3c(NCc4nc5cc(Cl)c(Cl)cc5[nH]4)nc(N4CCNCC4)nc32)cn1 | 49100 a.u. and 38200 a.u. and 45800 a.u.
CCn1cnc2c(NCc3nc4cc(Cl)c(Cl)cc4[nH]3)nc(N3CCN(c4ccccn4)CC3)nc21 | 498000 a.u. and 532000 a.u. and 504000 a.u.
CCn1cnc2c(NCc3nc4cc(Cl)c(Cl)cc4[nH]3)nc(N3CCN(C(=O)c4ccccn4)CC3)nc21 | 13100 a.u. and 12600 a.u. and 13300 a.u.
CCn1cnc2c(NCc3nc4cc(Cl)c(Cl)cc4[nH]3)nc(N3CCN(C(C)=O)CC3)nc21 | 11200 a.u. and 10500 a.u. and 11100 a.u.
CCn1cnc2c(NCc3nc4cc(Cl)c(Cl)cc4[nH]3)nc(N3CCN(Cc4ccncc4)CC3)nc21 | 19400 a.u. and 24300 a.u.
CCn1cnc2c(NCc3nc4cc(Cl)c(Cl)cc4[nH]3)nc(N3CCN(C(=O)CNC(C)=O)CC3)nc21 | 34200 a.u. and 27300 a.u. and 25700 a.u.
CCCCOc1nc(NCc2nc3cc(Cl)c(Cl)cc3[nH]2)c2ncn(CC)c2n1 | 210000 a.u. and 267000 a.u. and 266000 a.u.
CC(=O)N1CCN(c2nc(NCc3nc4cc(Cl)c(Cl)cc4[nH]3)c3ncn(-c4cnn(C)c4)c3n2)CC1 | 226000 a.u. and 293000 a.u. and 221000 a.u.
CCn1cnc2c(NCc3nc4cc(Cl)c(Cl)cc4[nH]3)nc(N3CCN(C(=O)c4cccnc4)CC3)nc21 | 12900 a.u. and 11400 a.u. and 9820 a.u.

Study 3 — observed: enzyme activity; action: inhibitor; technique: Ub-TR-FRET; matrix: HECT domain; tested at: 0.005081 µM; reading: higher = more chain formation
Target: E3 ubiquitin-protein ligase NEDD4, HECT domain (Homo sapiens, UniProt P46934)
Chain of UniProt P46934 (whole entry, looked up): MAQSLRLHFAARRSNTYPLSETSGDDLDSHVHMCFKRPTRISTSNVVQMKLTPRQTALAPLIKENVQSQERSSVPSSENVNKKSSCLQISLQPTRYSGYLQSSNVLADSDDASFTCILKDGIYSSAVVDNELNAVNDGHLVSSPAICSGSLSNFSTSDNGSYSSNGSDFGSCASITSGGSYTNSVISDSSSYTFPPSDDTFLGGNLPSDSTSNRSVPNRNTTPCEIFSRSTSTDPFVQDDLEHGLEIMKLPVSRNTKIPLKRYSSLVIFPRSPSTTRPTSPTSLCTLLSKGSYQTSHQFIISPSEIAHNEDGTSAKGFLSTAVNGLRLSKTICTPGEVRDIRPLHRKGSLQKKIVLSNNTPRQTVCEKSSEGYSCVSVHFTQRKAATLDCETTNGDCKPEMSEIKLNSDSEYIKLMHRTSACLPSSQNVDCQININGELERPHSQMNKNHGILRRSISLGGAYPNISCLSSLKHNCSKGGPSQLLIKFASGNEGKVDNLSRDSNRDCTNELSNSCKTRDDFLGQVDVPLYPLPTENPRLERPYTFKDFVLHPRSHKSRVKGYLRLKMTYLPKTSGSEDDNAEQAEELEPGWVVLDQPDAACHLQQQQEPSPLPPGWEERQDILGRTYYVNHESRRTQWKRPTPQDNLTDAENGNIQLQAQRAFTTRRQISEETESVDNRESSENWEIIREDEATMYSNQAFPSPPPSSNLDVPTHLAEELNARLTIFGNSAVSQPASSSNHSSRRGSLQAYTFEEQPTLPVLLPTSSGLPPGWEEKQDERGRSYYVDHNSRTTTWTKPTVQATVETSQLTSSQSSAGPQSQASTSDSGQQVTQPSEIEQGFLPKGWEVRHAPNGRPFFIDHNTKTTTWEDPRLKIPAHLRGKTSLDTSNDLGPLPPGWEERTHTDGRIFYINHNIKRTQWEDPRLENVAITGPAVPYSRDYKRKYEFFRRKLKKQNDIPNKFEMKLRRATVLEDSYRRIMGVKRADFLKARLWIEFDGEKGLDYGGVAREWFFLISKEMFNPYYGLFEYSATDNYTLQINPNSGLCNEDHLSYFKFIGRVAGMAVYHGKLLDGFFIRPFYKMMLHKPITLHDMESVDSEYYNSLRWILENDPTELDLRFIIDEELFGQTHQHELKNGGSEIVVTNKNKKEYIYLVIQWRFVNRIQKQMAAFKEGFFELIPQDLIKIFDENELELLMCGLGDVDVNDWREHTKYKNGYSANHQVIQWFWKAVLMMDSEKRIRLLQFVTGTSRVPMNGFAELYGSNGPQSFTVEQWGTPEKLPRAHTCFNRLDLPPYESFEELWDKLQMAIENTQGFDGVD
SMILES | ubiquitin chain formation AUC
CCOC(=O)/C=C/CNCCCCN1c2ccccc2C(=O)N(C)c2ccc(Cl)cc21.O=C(O)/C=C\C(=O)O | 98500 a.u. and 98000 a.u. and 99100 a.u.
CCONC(=O)/C=C/CNCCCCN1c2ccccc2CCc2ccc(Cl)cc21.O=C(O)/C=C\C(=O)O | 37800 a.u. and 35200 a.u. and 26400 a.u. and 27600 a.u. and 27100 a.u. and 38400 a.u.
CCOC(=O)/C=C/CNCCCCN1c2cc(Cl)ccc2C(=O)N(C)c2ccccc21.O=C(O)/C=C\C(=O)O | 91600 a.u. and 97000 a.u. and 92400 a.u.
CCOC(=O)/C=C/CNCCCCN1c2ccccc2COc2ccc(Cl)cc21.O=C(O)/C=C\C(=O)O | 93400 a.u. and 92500 a.u. and 93700 a.u.

Study 4 — cell line: U-87 MG; tested at: concentration not given; reference: DMSO
Compound: CCN1/C(=C/C=C2\CCCC(/C=C/C3=[N+](CC)c4ccccc4C3(C)C)=C2NCCCCCCCCN2CCC(Nc3nc4ccccc4n3Cc3ccc(F)cc3)CC2)C(C)(C)c2ccccc21
refers to | log2 fold change
BTBD6 mRNA | -0.888
SLF2 mRNA | -0.892
GTPBP2 mRNA | 1.04
RGCC mRNA | -3.09
CCN4 mRNA | -3.88
CAMKK1 mRNA | -2.16
LIMS4 mRNA | 1.38
KIAA1549L mRNA | -1.41
DOP1B mRNA | -1.32
ARMCX1 mRNA | 0.871
SLC19A1 mRNA | -1.04
ING1 mRNA | 0.868
GPR158 mRNA | 4.26
ARHGAP11B mRNA | -1.8
NPTXR mRNA | -1.63
MAP3K6 mRNA | -1.57

Study 5 — cell line: Gaucher fibroblasts L444P/L444P; technique: 4-MUG hydrolysis, cell lysate; tested at: 0.1 µM; reference: DMSO
Structure (SMILES) | GCase activity
Ic1ccc(Nc2nc(NCCCN3CCOCC3)nc(N3CCOCC3)n2)cc1 | 103% and 106% and 105% and 116% and 110%
Ic1ccc(Nc2nc(NCCN3CCOCC3)nc(N3CC4CC3CO4)n2)cc1 (stereo not drawn) | 112% and 97.7% and 99.7% and 101% and 93.2% and 104%
COc1ccc(Nc2nc(NCCN3CCOCC3)nc(N3CCOCC3)n2)cc1 | 93% and 94.5% and 110% and 91.1% and 103%
Ic1ccc(Nc2nc(NCCN3CCOCC3)nc(N3CCSCC3)n2)cc1 | 98.7% and 110% and 87.7% and 109%
Ic1ccc(Nc2nc(NCCN3CCOCC3)nc(N3CCCC3)n2)cc1 | 100% and 89.1% and 99.2% and 103%
Ic1ccc(Nc2nc(NCCN3CCCCC3)nc(N3CCOCC3)n2)cc1 | 96.6% and 99.6% and 107% and 97.9% and 103% and 97.6%
Ic1ccc(Nc2nc(NCCN3CCOCC3)nc(N3CCCCC3)n2)cc1 | 106% and 103% and 93.3% and 105% and 96.1% and 100%
c1ccc(Nc2nc(NCCN3CCOCC3)nc(N3CCOCC3)n2)cc1 | 103% and 93.2% and 101% and 92.8% and 91.8% and 91.6%

Study 6
Compound: CCCN1C(=O)C(O)(C(=O)O)Oc2cc(F)ccc21 (stereo not drawn)
organism | assay | system | setting | inhibition
Arabidopsis thaliana | hypocotyl length | Col-0, seedlings | 3.125 µg/mL | 5.34%
Alopecurus aequalis | fresh weight | – | 150 g ai/ha, pre-emergence treatment | 87.2% and 85.4% and 88.4%
Arabidopsis thaliana | hypocotyl length | Col-0, seedlings | 50 µg/mL | 47.7%
Setaria viridis | fresh weight | – | 150 g ai/ha, pre-emergence treatment | 71.5% and 81.1% and 74.8%
Arabidopsis thaliana | root length | Col-0 | 100 µg/mL, 7 days, seed germination, dark | 89.2%
Arabidopsis thaliana | root length | Col-0, seedlings | 6.25 µg/mL | 22.5%
Abutilon theophrasti | fresh weight | – | 150 g ai/ha, pre-emergence treatment | 86.2% and 85.4% and 77.7%
Arabidopsis thaliana | root length | Col-0, seedlings | 12.5 µg/mL | 30.8%
Arabidopsis thaliana | hypocotyl length | Col-0 | 6.25 µg/mL, 7 days, seed germination, dark | 10.9%
Arabidopsis thaliana | root length | Col-0 | 25.0 µg/mL, 7 days, seed germination, dark | 51.1%
Arabidopsis thaliana | root length | Col-0 | 12.5 µg/mL, 7 days, seed germination, dark | 30.8%
Arabidopsis thaliana | root length | Col-0 | 6.25 µg/mL, 7 days, seed germination, dark | 22.5%

Further values, each from its own experiment
Compound | tested on | assay | system | setting | how to read | measurement | value
Cc1ncsc1-c1ccc(C(CO)NC(=O)C2CC(O)CN2C(=O)C(NC(=O)c2ccc(COc3c(-c4c(C)c(F)cc5[nH]ncc45)c(C4CC4)cc4c(N5CC6CC5CN6)nc(OC5CCOCC5)nc34)cc2)C(C)C)cc1 (stereo not drawn) | ASPC1 | cell growth or viability, ATP luminescence | – | 300 pM, 6 days | – | viability | 93.6% and 96.6% and 94.7% and 87.7% and 81.4% and 83.3%
COCC1CC2C(CCC3(C)C(O)CCC23)c2ccc(O)cc21 (stereo not drawn) | PANC-1 | DNA microarray, refers to: GAPDH | – | concentration not given, lower dose arm | reference: untreated cells | mRNA level ratio | 1.37 and 1.4 and 1.35 and 1.34
Cc1ncsc1-c1ccc(C2(NC(=O)C3CC(O)CN3C(=O)C(NC(=O)c3ccc(COc4c(-c5c(C)c(F)cc6[nH]ncc56)c(C5CC5)cc5c(N6CC7CC6CN7)nc(OC6CCOCC6)nc45)cc3)C(C)(C)C)CC2)cc1 (stereo not drawn) | AsPC-1 | in-cell ELISA | – | 3 nM, individual replicates | – | phospho-ERK1/2 level | 89.8% and 92.8% and 98.1% and 99.4% and 103%
Cc1nc(C)c(C=[N+]([O-])C(C)(C)C)nc1C | – | immunofluorescence, refers to: 3-nitrotyrosine | mouse, MPTP model, substantia nigra | 30 mg/kg | reference: sham mice | fluorescence intensity | 225% and 208%
Cc1ncsc1-c1ccc(C2(NC(=O)C3CC(O)CN3C(=O)C(NC(=O)c3ccc(COc4c(-c5c(C)c(F)cc6[nH]ncc56)c(C5CC5)cc5c(N6CC7CC6CN7)nc(OC6CCOCC6)nc45)cc3)C(C)C)CC2)cc1 (stereo not drawn) | AsPC-1 | in-cell ELISA | – | 300 nM, individual replicates | – | phospho-ERK1/2 level | 56.5% and 20.3% and 33% and 46.9% and 22.9% and 21.2%
Cc1ncsc1-c1ccc(C(CO)NC(=O)C2CC(O)CN2C(=O)C(C(C)C)n2cc(-c3ccc(COc4c(-c5c(C)c(F)cc6[nH]ncc56)c(C5CC5)cc5c(N6CC7CC6CN7)nc(OC6CCOCC6)nc45)cc3)nn2)cc1 (stereo not drawn) | AsPC-1 | in-cell ELISA, refers to: phospho-ERK1/2 | – | 10 nM | – | ERK1/2 phosphorylation | 62.2% and 52.3% and 56.9%

Some of these lines once more (further values, each from its own experiment):
Compound | tested on | assay | system | setting | how to read | measurement | value
Cc1ncsc1-c1ccc(C(CO)NC(=O)C2CC(O)CN2C(=O)C(NC(=O)c2ccc(COc3c(-c4c(C)c(F)cc5[nH]ncc45)c(C4CC4)cc4c(N5CC6CC5CN6)nc(OC5CCOCC5)nc34)cc2)C(C)C)cc1 (stereo not drawn) | ASPC1 | cell growth or viability, ATP luminescence | – | 300 pM, 6 days | – | viability | 93.6% and 96.6% and 94.7% and 87.7% and 81.4% and 83.3%
COCC1CC2C(CCC3(C)C(O)CCC23)c2ccc(O)cc21 (stereo not drawn) | PANC-1 | DNA microarray, refers to: GAPDH | – | concentration not given, lower dose arm | reference: untreated cells | mRNA level ratio | 1.37 and 1.4 and 1.35 and 1.34
Cc1ncsc1-c1ccc(C2(NC(=O)C3CC(O)CN3C(=O)C(NC(=O)c3ccc(COc4c(-c5c(C)c(F)cc6[nH]ncc56)c(C5CC5)cc5c(N6CC7CC6CN7)nc(OC6CCOCC6)nc45)cc3)C(C)(C)C)CC2)cc1 (stereo not drawn) | AsPC-1 | in-cell ELISA | – | 3 nM, individual replicates | – | phospho-ERK1/2 level | 89.8% and 92.8% and 98.1% and 99.4% and 103%
Cc1nc(C)c(C=[N+]([O-])C(C)(C)C)nc1C | – | immunofluorescence, refers to: 3-nitrotyrosine | mouse, MPTP model, substantia nigra | 30 mg/kg | reference: sham mice | fluorescence intensity | 225% and 208%
Cc1ncsc1-c1ccc(C2(NC(=O)C3CC(O)CN3C(=O)C(NC(=O)c3ccc(COc4c(-c5c(C)c(F)cc6[nH]ncc56)c(C5CC5)cc5c(N6CC7CC6CN7)nc(OC6CCOCC6)nc45)cc3)C(C)C)CC2)cc1 (stereo not drawn) | AsPC-1 | in-cell ELISA | – | 300 nM, individual replicates | – | phospho-ERK1/2 level | 56.5% and 20.3% and 33% and 46.9% and 22.9% and 21.2%
Cc1ncsc1-c1ccc(C(CO)NC(=O)C2CC(O)CN2C(=O)C(C(C)C)n2cc(-c3ccc(COc4c(-c5c(C)c(F)cc6[nH]ncc56)c(C5CC5)cc5c(N6CC7CC6CN7)nc(OC6CCOCC6)nc45)cc3)nn2)cc1 (stereo not drawn) | AsPC-1 | in-cell ELISA, refers to: phospho-ERK1/2 | – | 10 nM | – | ERK1/2 phosphorylation | 62.2% and 52.3% and 56.9%
